Assay results collected from several papers.
Each line is one published result; not all experiments were run side by side. Values joined by “and” are separate records of one study, mostly repeats; a detail may differ. ± gives the spread as reported.
HDAC11: Histone deacetylase 11 (HDAC11, Homo sapiens, UniProt Q96DB2)
Chain of UniProt Q96DB2 (whole entry, looked up): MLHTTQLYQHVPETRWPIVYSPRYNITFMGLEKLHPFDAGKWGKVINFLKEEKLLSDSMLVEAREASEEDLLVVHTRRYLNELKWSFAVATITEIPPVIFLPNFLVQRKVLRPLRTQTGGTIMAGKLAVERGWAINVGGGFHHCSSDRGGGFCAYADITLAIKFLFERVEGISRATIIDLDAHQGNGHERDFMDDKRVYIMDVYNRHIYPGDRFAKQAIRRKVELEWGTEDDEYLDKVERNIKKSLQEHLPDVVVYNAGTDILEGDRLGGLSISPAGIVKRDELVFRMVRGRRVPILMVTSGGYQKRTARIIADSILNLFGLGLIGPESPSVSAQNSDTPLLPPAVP
DRD4: D(4) dopamine receptor (DRD4, Homo sapiens, UniProt P21917)
Chain of UniProt P21917 (whole entry, looked up): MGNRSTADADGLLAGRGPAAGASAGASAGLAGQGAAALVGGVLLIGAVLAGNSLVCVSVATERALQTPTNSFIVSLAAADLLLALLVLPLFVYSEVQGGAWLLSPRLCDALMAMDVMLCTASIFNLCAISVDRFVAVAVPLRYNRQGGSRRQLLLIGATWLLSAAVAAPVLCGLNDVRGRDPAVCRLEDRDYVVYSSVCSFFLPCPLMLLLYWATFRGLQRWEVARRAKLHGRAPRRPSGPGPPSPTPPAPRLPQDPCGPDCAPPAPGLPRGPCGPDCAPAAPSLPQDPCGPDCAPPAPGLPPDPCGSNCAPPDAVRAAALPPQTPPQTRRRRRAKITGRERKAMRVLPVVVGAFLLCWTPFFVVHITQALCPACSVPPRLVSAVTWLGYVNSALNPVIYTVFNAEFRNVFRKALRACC
AMY2: Pancreatic alpha-amylase (AMY2, Sus scrofa, UniProt P00690)
Chain of UniProt P00690 (whole entry, looked up): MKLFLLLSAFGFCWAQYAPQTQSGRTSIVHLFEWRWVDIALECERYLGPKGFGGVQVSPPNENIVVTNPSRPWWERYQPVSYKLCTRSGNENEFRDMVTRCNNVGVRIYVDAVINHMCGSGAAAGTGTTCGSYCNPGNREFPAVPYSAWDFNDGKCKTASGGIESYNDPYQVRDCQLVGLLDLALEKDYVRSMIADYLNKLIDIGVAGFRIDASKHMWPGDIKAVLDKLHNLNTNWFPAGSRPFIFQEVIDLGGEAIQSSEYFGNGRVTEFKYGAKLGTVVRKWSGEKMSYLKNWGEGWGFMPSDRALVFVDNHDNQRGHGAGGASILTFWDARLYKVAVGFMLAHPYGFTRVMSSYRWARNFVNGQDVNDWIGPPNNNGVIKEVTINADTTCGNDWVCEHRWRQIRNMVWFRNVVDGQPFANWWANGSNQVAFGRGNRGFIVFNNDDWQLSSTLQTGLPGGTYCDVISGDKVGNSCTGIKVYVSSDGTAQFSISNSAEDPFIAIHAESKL
HTR5A: 5-hydroxytryptamine receptor 5A (HTR5A, Homo sapiens, UniProt P47898)
Chain of UniProt P47898 (whole entry, looked up): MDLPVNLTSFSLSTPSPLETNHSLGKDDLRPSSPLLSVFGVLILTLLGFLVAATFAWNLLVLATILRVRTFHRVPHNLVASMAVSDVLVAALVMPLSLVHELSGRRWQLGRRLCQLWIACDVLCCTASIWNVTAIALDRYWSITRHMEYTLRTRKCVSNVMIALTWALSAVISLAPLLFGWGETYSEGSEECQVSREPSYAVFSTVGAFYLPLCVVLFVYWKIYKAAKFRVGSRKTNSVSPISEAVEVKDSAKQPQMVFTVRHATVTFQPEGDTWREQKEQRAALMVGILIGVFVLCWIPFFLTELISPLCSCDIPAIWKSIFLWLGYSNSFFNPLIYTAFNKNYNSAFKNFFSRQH
SCN5A: Sodium channel protein type 5 subunit alpha (SCN5A, Homo sapiens, UniProt Q14524)
Chain of UniProt Q14524 (whole entry, looked up): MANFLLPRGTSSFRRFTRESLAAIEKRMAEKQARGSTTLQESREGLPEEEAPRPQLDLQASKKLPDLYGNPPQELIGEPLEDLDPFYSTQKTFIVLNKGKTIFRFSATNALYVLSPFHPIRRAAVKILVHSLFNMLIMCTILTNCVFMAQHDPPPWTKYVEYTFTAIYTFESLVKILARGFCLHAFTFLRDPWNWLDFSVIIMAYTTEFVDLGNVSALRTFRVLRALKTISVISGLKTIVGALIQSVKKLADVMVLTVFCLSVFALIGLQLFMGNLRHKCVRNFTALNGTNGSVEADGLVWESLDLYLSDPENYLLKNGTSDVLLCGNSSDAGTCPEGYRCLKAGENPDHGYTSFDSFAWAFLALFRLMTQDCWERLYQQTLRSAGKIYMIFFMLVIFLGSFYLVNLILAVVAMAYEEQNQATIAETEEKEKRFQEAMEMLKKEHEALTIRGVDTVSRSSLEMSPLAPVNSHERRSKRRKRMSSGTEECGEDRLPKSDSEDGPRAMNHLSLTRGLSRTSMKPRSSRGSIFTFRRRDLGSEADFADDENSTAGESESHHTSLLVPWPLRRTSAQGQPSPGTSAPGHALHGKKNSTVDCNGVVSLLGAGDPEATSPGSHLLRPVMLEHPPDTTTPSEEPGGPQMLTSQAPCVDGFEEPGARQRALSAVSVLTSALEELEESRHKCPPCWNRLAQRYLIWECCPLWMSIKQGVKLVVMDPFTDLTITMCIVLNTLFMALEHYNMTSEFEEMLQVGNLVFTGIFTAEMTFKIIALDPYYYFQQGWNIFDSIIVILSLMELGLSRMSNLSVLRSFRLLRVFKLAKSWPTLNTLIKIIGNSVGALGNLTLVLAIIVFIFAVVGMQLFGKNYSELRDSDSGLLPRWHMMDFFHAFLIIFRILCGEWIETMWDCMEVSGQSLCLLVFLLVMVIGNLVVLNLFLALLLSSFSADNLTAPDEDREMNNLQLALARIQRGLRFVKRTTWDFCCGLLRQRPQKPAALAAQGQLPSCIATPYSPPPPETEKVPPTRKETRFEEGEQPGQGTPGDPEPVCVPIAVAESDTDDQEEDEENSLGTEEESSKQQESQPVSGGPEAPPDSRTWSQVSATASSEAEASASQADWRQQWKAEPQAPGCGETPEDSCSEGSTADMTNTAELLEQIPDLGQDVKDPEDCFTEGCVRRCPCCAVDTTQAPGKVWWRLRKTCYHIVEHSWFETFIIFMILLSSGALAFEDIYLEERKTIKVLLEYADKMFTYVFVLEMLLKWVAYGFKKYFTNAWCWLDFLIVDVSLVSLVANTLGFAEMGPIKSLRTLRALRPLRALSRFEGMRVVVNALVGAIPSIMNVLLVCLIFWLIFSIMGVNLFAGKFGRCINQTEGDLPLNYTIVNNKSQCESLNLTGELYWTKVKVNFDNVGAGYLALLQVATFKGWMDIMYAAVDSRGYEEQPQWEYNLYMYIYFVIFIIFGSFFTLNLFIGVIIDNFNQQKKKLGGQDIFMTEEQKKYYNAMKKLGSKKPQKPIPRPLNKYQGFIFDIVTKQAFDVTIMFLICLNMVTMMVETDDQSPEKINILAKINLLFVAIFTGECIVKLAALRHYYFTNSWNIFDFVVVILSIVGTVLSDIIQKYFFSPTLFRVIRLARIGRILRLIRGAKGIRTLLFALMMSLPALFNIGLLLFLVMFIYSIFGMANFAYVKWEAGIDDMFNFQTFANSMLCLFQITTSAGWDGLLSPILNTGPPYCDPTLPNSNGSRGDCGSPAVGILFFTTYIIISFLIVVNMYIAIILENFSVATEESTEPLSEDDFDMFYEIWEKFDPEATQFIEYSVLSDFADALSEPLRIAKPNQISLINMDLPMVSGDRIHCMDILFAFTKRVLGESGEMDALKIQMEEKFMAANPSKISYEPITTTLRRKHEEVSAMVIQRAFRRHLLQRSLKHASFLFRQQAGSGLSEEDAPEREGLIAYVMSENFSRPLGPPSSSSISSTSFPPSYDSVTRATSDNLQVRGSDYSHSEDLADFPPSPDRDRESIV
TLR2: Toll-like receptor 2 (TLR2, Homo sapiens, UniProt O60603)
HTR2B: 5-hydroxytryptamine receptor 2B (HTR2B, Homo sapiens, UniProt P41595)
Chain of UniProt Q8IWT6 (whole entry, unmodified, looked up): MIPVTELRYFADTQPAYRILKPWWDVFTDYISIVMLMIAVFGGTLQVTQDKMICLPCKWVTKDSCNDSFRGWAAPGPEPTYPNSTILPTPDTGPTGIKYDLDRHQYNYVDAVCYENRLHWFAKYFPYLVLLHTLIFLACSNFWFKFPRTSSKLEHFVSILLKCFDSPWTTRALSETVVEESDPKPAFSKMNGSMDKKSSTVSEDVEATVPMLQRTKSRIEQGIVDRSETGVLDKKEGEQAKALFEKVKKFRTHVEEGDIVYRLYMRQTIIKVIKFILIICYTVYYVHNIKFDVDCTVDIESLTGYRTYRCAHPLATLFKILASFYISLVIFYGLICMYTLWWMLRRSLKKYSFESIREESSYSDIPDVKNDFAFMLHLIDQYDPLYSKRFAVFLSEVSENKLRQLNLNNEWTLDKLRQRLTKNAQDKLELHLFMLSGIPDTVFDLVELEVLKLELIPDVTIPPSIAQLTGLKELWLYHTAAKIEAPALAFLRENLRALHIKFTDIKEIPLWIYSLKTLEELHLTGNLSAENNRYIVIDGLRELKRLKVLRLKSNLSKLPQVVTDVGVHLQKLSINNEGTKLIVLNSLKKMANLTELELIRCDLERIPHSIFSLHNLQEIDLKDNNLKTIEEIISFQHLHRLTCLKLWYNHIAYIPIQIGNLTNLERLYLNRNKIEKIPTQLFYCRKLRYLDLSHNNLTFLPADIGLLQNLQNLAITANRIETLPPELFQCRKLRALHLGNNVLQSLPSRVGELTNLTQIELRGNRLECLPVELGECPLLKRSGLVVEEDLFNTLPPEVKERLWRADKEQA
Chain of UniProt Q96S37 (whole entry, looked up): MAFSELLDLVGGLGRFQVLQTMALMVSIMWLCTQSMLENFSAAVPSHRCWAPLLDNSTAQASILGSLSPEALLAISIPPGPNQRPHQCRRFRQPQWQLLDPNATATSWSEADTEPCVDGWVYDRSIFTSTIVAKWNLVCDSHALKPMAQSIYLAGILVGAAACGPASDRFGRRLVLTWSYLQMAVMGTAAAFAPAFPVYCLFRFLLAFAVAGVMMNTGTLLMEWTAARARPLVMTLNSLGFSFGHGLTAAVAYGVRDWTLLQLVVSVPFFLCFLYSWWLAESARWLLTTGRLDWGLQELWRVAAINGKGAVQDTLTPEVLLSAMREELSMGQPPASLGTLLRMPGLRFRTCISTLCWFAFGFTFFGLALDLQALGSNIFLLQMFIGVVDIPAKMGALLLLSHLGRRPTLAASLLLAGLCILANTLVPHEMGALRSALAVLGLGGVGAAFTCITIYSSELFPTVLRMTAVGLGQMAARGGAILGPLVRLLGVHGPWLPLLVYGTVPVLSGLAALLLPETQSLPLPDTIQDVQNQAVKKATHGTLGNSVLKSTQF

Compound | target | assay | system | conditions | inhibition
Cc1cc(C)c(OS(=O)(=O)Oc2cccc(C(=O)NO)c2)c(C)c1 | HDAC11 | – | – | 10 µM | 13%
Cc1cc(-c2ccnc3[nH]cc(F)c23)cc(F)c1[C@@]1(O)[C@H](C)CN(C2CCS(=O)(=O)CC2)C[C@@H]1C | AMPK alpha1 and alpha2 | ATP probe binding, KiNativ, item: Lys1 site | HEK293T cell lysate | 10 µM | 78.4%
CCS(=O)(=O)c1nc(S(=O)(=O)c2ccccc2Cl)c(N2CCN(C)C(=O)[C@H]2C)s1 | DRD4 | – | – | 10 µM | 2.32%
Ic1cccc2cnccc12 | nicotinic acetylcholine receptor (human) | radioligand binding, inhibitor | – | 10 µM | -3%
COc1cc2c(cc1OC)C(=O)N(CCCCN1CCN(c3ccccc3OC)CC1)C2 | DRD4 | radioligand binding | – | concentration not given, added: [3H]N-methylspiperone | 91.6%
Cc1ccc(C(=O)Nc2ccc3ccccc3c2)o1 | KCNA3 (Homo sapiens, UniProt P22001) | ion current, whole-cell patch-clamp | – | 10 µM, hKv1.3 | 15.9%
COc1cc(C(=O)NS(=O)(=O)c2ccccc2C)ccc1Cc1cn(C)c2ccc(NC(=O)OC3CCCC3)cc12 | Volume-regulated anion channel subunit LRRC8C, part LRRC8A IL1 chimera (LRRC8C, Homo sapiens, UniProt Q8TDW0, M48D) | ion current, inhibitor, whole-cell patch clamp | HCT LRRC8-/- cells | 1 µM, constitutively open channel, +100 mV | 3.23% and 5.81% and 10.5% and 2.9% and 7.08% and -0.571%
O=C(CN1CCO[C@@H](COc2cccnc2)C1)N1CCc2ccccc21 | DRD4 | radioligand binding | – | concentration not given, added: [3H]N-methylspiperone | 38.9%
O=c1c(O)c(-c2ccc(O)cc2O)oc2cc(O)cc(O)c12 | AMY2 | enzyme activity, inhibitor | – | 50 µM, added: CNP-G3 substrate | 51.8 ± 4.65%
Cc1cc(OC(C)C)ccc1C(=O)C(C)(C)NC(=O)c1sccc1C | succinate-cytochrome c oxidoreductase (Rattus norvegicus, UniProt P21913+Q641Z9+Q6PCT8) | activity, succinate-cytochrome c oxidoreductase | Sprague-Dawley rat, mitochondrial fraction | dose not given | no inhibition
COc1ccc([C@@H]2CC(=O)c3c(O)cc(O)cc3O2)cc1O | AMY2 | enzyme activity, inhibitor | – | 50 µM, added: CNP-G3 substrate | 29.9 ± 0.63%
[2H]c1cc(C)c(NC(=O)c2cnc(Nc3cc(N4CCCCC4)nc(C)n3)s2)c(Cl)c1 | DDR2 (Homo sapiens, UniProt Q16832) | – | – | 0.01 µM | > 90%
c1cncc(OC[C@H]2CN(CCN3CCc4ccccc43)CCO2)c1 | HTR5A | radioligand binding | – | concentration not given, added: [3H]LSD | -20.7%
CC(C)c1noc2ncc(C(=O)c3ccccc3O)cc12 | SCN5A | ion current, inhibitor, whole-cell patch clamp | – | 10 µM | 9.76% and 10% and 11.2% and 3.6%
COc1ccc(OS(=O)(=O)Oc2cccc(C(=O)NO)c2)cc1 | HDAC11 | – | – | 5 µM | 43%
CC[C@@H]1[C@H](F)C(=O)N[C@@H]1COc1nccc2cc(C(N)=O)c(OC)cc12 | PRPF4B (Homo sapiens, UniProt Q13523) | ATP-site probe binding, ActivX profiling | THP-1 cell lysate | 0.2 mM, Lys1 site | 29.8%
NC/C(=C\F)COc1cccc(Cn2c(=S)[nH]c(=O)c3[nH]cnc32)c1 | SCN5A | peak sodium current, inhibitor, automated patch clamp | – | 10 µM, pulse 9, single recording | 17.3%
O=C(Nc1cccc2c(=O)cc(-c3nnn[nH]3)oc12)c1ccc(OCCCCc2ccccc2)cc1 | LRRC8A/LRRC8C (Homo sapiens, UniProt Q8IWT6+Q8TDW0, M48D/T48D) | ion current, whole-cell patch clamp | HCT LRRC8-/- cells | 0.1 µM, -100 mV, T48D/M48D heteromers | 0.307% and -1.41% and -0.686%
OCCCN1CC[C@@H]2C[C@H]1c1cc(-c3ccc(C(F)(F)F)cc3)ccc12 | DRD4 | radioligand binding, PDSP competition binding | – | 10 µM | < 50%
COc1cc2c(cc1OC)C(=O)C(CC1CCN(Cc3ccccc3)CC1)C2 (centres unmarked) | DRD4 | radioligand binding | – | concentration not given, added: [3H]N-methylspiperone | 89.2%
C=C1C(=O)O[C@@H]2C[C@@]3(C)CCC[C@H](C)C3=C[C@H]12 | TLR2 | SEAP reporter gene, antagonist | HEK-Blue hTLR2 | 10 µM, added: Pam3CSK4 | > 90%
COc1cccc(OS(=O)(=O)Oc2cccc(C(=O)NO)c2)c1 | HDAC11 | – | – | 10 µM | 21%

Compound | target | assay | system | conditions | inhibition
COc1ccc2c(c1)C(=O)N(CCCN1CCN(c3ccccc3OC)CC1)C2 | HTR5A | radioligand binding | – | concentration not given, added: [3H]LSD | 64.5%
Cc1cc2c(cc1N1C(=O)c3cccc4c(CCCO)ccc(c34)C1=O)n(C)c(=O)n2C (racemic) | Protein polybromo-1, BD2 (PBRM1, Homo sapiens, UniProt Q86U86) | binding, BROMOscan binding | – | 1000 nM | 70%
O=c1c(O)c(-c2ccc(O)c(O)c2)oc2cc(O)cc(O)c12 | AMY2 | enzyme activity | – | concentration not given, added: CNP-G3 substrate | 92.2% and 95.9%
COc1ccc(-c2cc(-c3ccc4oc(=O)cc(C)c4c3O)nc(N)n2)cc1 | AMY2 | enzyme activity, inhibitor | – | concentration not given | 73.9 ± 1.24%
CN1CC(Oc2cnc(C#N)cc2-c2ccn3nc(NC(=O)C4CC4)cc3c2)C1 | DMPK (Homo sapiens, UniProt Q09013) | inhibitor, KinaseProfiler panel | – | 1 µM | -2%
O=c1cc(-c2ccc(O)c(O)c2)oc2cc(O)cc(O)c12 | TLR2 | SEAP reporter gene, antagonist | HEK-Blue hTLR2 | 10 µM, added: Pam3CSK4 | > 90%
CN(C(=O)n1cnc(-c2ccc[n+]([O-])c2)c1)C1CCCCC1 | HTR5A | – | – | 10 µM | 8.22%
COc1cccc(OC[C@@H]2CN(CC(=O)N3CCc4ccccc43)CCO2)c1 | HTR5A | radioligand binding | – | concentration not given, added: [3H]LSD | 14.6%
O=C(NO)c1cccc(OS(=O)(=O)Oc2ccc(-n3ccnc3)cc2)c1 | HDAC11 | – | – | 10 µM | 33%
Cc1nn(-c2nc3ccccc3s2)c(O)c1C(c1ccccc1C(=O)O)c1c(C)nn(-c2nc3ccccc3s2)c1O | CGAS (Homo sapiens, UniProt Q8N884) | enzyme activity, inhibitor, pyrophosphatase-coupled | – | 25 µM, 1.5 h, added: HT-DNA | 91.4%
CCc1oc2ccccc2c1C(=O)c1cc(Br)c(O)c(Br)c1 | SLC22A12 (Homo sapiens, UniProt Q96S37) | urate uptake | HEK-293T | 0.5 µM, 10 min, 37 °C, added: [14C]urate 200 µM | 65.6% and 40.6% and 69% and 59.9% and 70% and 63.8% and 67%
Cc1cc(O)c(-c2ccc([C@@H](C)CN(C)C)cc2)c2c1[nH]c(=O)c1sccc12 | MINK1 (Homo sapiens, UniProt Q8N4C8) | inhibitor, KiNativ probe labelling | cell lysate | 0.1 µM | 6.29%
Cc1cc(=O)oc2ccc(-c3cc(-c4cccc([N+](=O)[O-])c4)nc(N)n3)c(O)c12 | AMY2 | enzyme activity, inhibitor | – | concentration not given | 70.7 ± 1.24%
Cc1cc(-c2ccnc3[nH]cc(F)c23)cc(F)c1[C@@]1(O)[C@H](C)CN(C(=O)CN)C[C@@H]1C | AMPK alpha1 and alpha2 | ATP probe binding, KiNativ, item: Lys1 site | HEK293T cell lysate | 0.1 µM | -11.4%
O=C(NO)c1cccc(OS(=O)(=O)Oc2cccc(-c3ccccc3)c2)c1 | HDAC11 | – | – | 10 µM | 8%
O=C(C[C@@H](C(F)F)n1ccc(F)n1)N1CCC(O)(Cn2cnc3c(cnn3-c3ccc(F)cc3)c2=O)CC1 | USP7 (Homo sapiens, UniProt Q93009, V517F) | enzyme activity, inhibitor | – | 0.5 µM | 8.99% and 11.3%
Clc1cncc(OC[C@H]2CN(CCN3CCc4ccccc43)CCO2)c1 | HTR2B | radioligand binding | – | concentration not given, added: [3H]LSD | 60.5%
CCCCCCCCCCCCNC(=O)CCCCC[C@H](NC(=O)OCc1ccccc1)C(=O)N[C@@H](Cc1c[nH]c2ccccc12)C(=O)NC(C)C | SIRT1 (Homo sapiens, UniProt Q96EB6) | enzyme activity, inhibitor | – | 100 µM | < 5%
O=C1N=C(N2CCCCN2)S/C1=C\c1ccc(F)cc1O | rat alpha1-adrenergic receptor | radioligand binding | rat cerebral cortex | 10 µM, added: [3H]prazosin | < 10%
NC(=O)c1ncn([C@@H]2O[C@H](CO[P@@](=O)(O)O[P@](=O)(O)OP(=O)(O)O)[C@@H](O)[C@H]2O)n1 | Non-structural polyprotein pORF1, helicase domain (Hepatitis E virus genotype 1, UniProt P33424) | ATPase activity, inhibitor, colorimetric | – | 14 µM, added: ATP 100 µM | 12.5%
O=C1c2ccccc2CCN1CCCCN1CCN(c2ccccn2)CC1 | HTR2B | radioligand binding | – | concentration not given, added: [3H]LSD | 88.4%
O=C(NO)c1ccc(CN2CCCCc3ccccc32)c(F)c1 | sigma-2 receptor | radioligand binding | – | 10 µM | 0%

Repeated from above:
Compound | target | assay | system | conditions | inhibition
Cc1cc(-c2ccnc3[nH]cc(F)c23)cc(F)c1[C@@]1(O)[C@H](C)CN(C2CCS(=O)(=O)CC2)C[C@@H]1C | AMPK alpha1 and alpha2 | ATP probe binding, KiNativ, item: Lys1 site | HEK293T cell lysate | 10 µM | 78.4%
CCS(=O)(=O)c1nc(S(=O)(=O)c2ccccc2Cl)c(N2CCN(C)C(=O)[C@H]2C)s1 | DRD4 | – | – | 10 µM | 2.32%
Ic1cccc2cnccc12 | nicotinic acetylcholine receptor (human) | radioligand binding, inhibitor | – | 10 µM | -3%
